Measured values gathered from unrelated publications.
Protocols differ between the studies behind these lines. ± marks the error that the study gave.
Cell line: human red blood cells

| SMILES | assay | system | conditions | how to read | quantity | value |
| --- | --- | --- | --- | --- | --- | --- |
| CC[C@H](C)[C@H](NC(=O)[C@H](Cc1ccccc1)NC(=O)[C@H](CC(=O)O)NC(=O)[C@H](CCCCN)NC(=O)[C@H](C)NC(=O)[C@H](CCCCN)NC(=O)[C@H](CC(N)=O)NC(=O)[C@H](CC(C)C)NC(=O)[C@H](Cc1c[nH]c2ccccc12)NC(=O)[C@H](CCC(=O)O)NC(=O)[C@H](CCCCN)NC(=O)[C@@H](NC(=O)CNC(=O)[C@H](C)N)[C@@H](C)O)C(=O)N[C@@H](CCCCN)C(=O)N[C@@H](CCC(=O)O)C(=O)N[C@@H](CCCCN)C(=O)NCC(=O)N1CCC[C@H]1C(=O)NCC(=O)N[C@@H](CCSC)C(=O)N[C@@H](CC(C)C)C(=O)N[C@@H](CO)C(=O)N[C@@H](C)C(=O)N[C@@H](C)C(=O)N[C@@H](C)C(=O)N[C@@H](CC(N)=O)C(=O)N[C@@H](C)C(=O)N[C@@H](C)C(=O)N[C@@H](CC(C)C)C(=O)N[C@@H](CC(N)=O)C(=O)O | – | – | 1 h | – | HC50 | > 250 µM |
| CC[C@H](C)[C@H](NC(=O)[C@H](CCCCN)NC(=O)[C@H](CC(N)=O)NC(=O)[C@H](Cc1c[nH]c2ccccc12)NC(=O)[C@H](Cc1ccccc1)NC(=O)[C@H](CCCCN)NC(=O)[C@H](CCCCNC(=N)N)NC(=O)[C@H](CC(C)C)NC(=O)[C@H](Cc1c[nH]c2ccccc12)NC(=O)[C@H](CCCCN)NC(=O)[C@H](CCCCNC(=N)N)NC(=O)[C@H](CC(C)C)NC(=O)CNC(C)=O)C(=O)N[C@@H](CCCCN)C(=O)N[C@@H](CCCCNC(=N)N)C(N)=O | – | 5 % erythrocyte suspension | 1 h, 37 °C | – | HC50 | 107 µM |
| CC[C@H](C)[C@H](NC(=O)[C@H](Cc1ccccc1)NC(=O)[C@H](CC(=O)O)NC(=O)[C@H](CCCCN)NC(=O)[C@H](C)NC(=O)[C@H](CCCCN)NC(=O)[C@H](CC(N)=O)NC(=O)[C@H](CC(C)C)NC(=O)[C@H](Cc1c[nH]c2ccccc12)NC(=O)[C@H](CCC(=O)O)NC(=O)[C@H](CCCCN)NC(=O)[C@@H](NC(=O)CNC(=O)[C@H](C)N)[C@@H](C)O)C(=O)N[C@@H](CCCCN)C(=O)N[C@@H](CCC(=O)O)C(=O)N[C@@H](CCCCN)C(=O)NCC(=O)N[C@@H](CC(C)C)C(=O)NCC(=O)N[C@@H](CCSC)C(=O)N[C@@H](CC(C)C)C(=O)N[C@@H](CCCNC(=N)N)C(=O)N[C@@H](C)C(=O)N[C@@H](C)C(=O)N[C@@H](C)C(=O)N[C@@H](CC(N)=O)C(=O)N[C@@H](C)C(=O)N[C@@H](C)C(=O)N[C@@H](CC(C)C)C(=O)N[C@@H](CC(N)=O)C(=O)O | – | – | 1 h | – | HC50 | > 150 µM |
| CC[C@H](C)[C@H](NC(=O)[C@@H](CCCCN)NC(=O)[C@H](CCCCN)NC(=O)[C@H](Cc1ccccc1)NC(=O)[C@H](CC(C)C)NC(=O)[C@@H](CCCCN)NC(=O)[C@H](Cc1c[nH]c2ccccc12)NC(=O)[C@H](CCCCN)NC(C)=O)C(=O)NCC(=O)N[C@@H](C)C(=O)N[C@H](C(=O)N[C@@H](CC(C)C)C(=O)N[C@@H](CCCCN)C(=O)N[C@H](CCCCN)C(=O)N[C@@H](CC(C)C)C(N)=O)C(C)C | – | – | 64 µM, 1 h, 37 °C | relative to: Triton X-100 | hemolysis | < 1% |
| CC[C@H](C)[C@H](NC(=O)[C@H](CCCNC(=N)N)NC(=O)[C@H](CCCNC(=N)N)NC(=O)[C@H](CCCNC(=N)N)NC(=O)[C@@H](NC(=O)[C@@H](NC(=O)[C@H](C)NC(=O)[C@H](CCCNC(=N)N)NC(=O)[C@H](CCCNC(=N)N)NC(=O)[C@H](CCCNC(=N)N)NC(=O)[C@@H]1CCCN1C(=O)[C@@H](N)CCCNC(=N)N)[C@@H](C)O)[C@@H](C)O)C(=O)N[C@H](C(=O)N[C@H](C(=O)NCC(=O)N[C@H](C(=O)N[C@@H](CCCNC(=N)N)C(=O)N[C@@H](CCCNC(=N)N)C(=O)N[C@@H](CCCNC(=N)N)C(=O)N[C@@H](CCCNC(=N)N)C(N)=O)[C@@H](C)O)[C@@H](C)O)[C@@H](C)O | – | – | 100 µM, 24 h, pH 7.4, 37 °C, 0.25% v/v erythrocytes | – | maximum haemolysis | 12 ± 0.4% |
| CC[C@H](C)[C@H](NC(=O)[C@H](CCCN)NC(=O)[C@H](CC(N)=O)NC(=O)[C@H](CC(C)C)NC(=O)[C@H](Cc1ccccc1)NC(=O)[C@H](CCCN)NC(=O)[C@H](CCCNC(=N)N)NC(=O)[C@H](CC(C)C)NC(=O)[C@H](CC(C)C)NC(=O)[C@H](CCCN)NC(=O)[C@H](CCCNC(=N)N)NC(=O)[C@H](CC(C)C)NC(=O)CNC(C)=O)C(=O)N[C@@H](CCCN)C(=O)N[C@@H](CCCNC(=N)N)C(N)=O | – | 5 % erythrocyte suspension | 1 h, 37 °C | – | HC50 | > 1000 µM |
| CC[C@H](C)[C@H](NC(=O)[C@H](CCCCN)NC(=O)[C@H](CCCCN)NC(=O)[C@H](Cc1ccccc1)NC(=O)[C@H](CC(C)C)NC(=O)[C@@H](CCCCN)NC(=O)[C@H](Cc1c[nH]c2ccccc12)NC(=O)[C@H](CCCCN)NC(C)=O)C(=O)NCC(=O)N[C@@H](C)C(=O)N[C@H](C(=O)N[C@@H](CC(C)C)C(=O)N[C@H](CCCCN)C(=O)N[C@H](C(=O)N[C@@H](CC(C)C)C(N)=O)C(C)C)C(C)C | – | – | 64 µM, 1 h, 37 °C | relative to: Triton X-100 | hemolysis | < 6% |
| CC(C)C[C@@H]1NC(=O)[C@H](CCCCN)NC(=O)CSC[C@@H]2NC(=O)[C@H](CC(C)C)NC(=O)[C@H](CC(C)C)NC(=O)[C@H](CCCCN)NC(=O)[C@H](CCCCNC(=O)[C@H](CCCCN)NC1=O)NC(=O)[C@H](CCCCN)NC(=O)[C@H](CC(C)C)NC(=O)[C@H](CCCCN)NC(=O)CSC[C@@H](C(=O)N[C@@H](CCCCN)C(N)=O)NC(=O)[C@H](CC(C)C)NC(=O)[C@H](CC(C)C)NC(=O)[C@H](CC(C)C)NC2=O | – | – | 4 h, pH 7.4, room temperature | – | minimal haemolytic concentration | 1000 µg/mL |
| CC[C@H](C)[C@H](NC(=O)[C@H](CCCCN)NC(=O)[C@@H](NC(=O)[C@H](CS)NC(=O)[C@H](CCCNC(=N)N)NC(=O)[C@H](CCCNC(=N)N)NC(=O)[C@H](CC(N)=O)NC(=O)[C@H](CCCNC(=N)N)NC(=O)[C@H](CCCNC(=N)N)NC(=O)[C@H](CS)NC(=O)[C@@H](NC(=O)[C@H](CO)NC(=O)[C@@H](NC(=O)[C@@H](NC(=O)[C@H](CS)NC(=O)[C@H](CCCCN)NC(=O)[C@@H](N)CCCNC(=N)N)C(C)C)[C@@H](C)CC)C(C)C)[C@@H](C)CC)C(=O)N[C@@H](CC(C)C)C(=O)N[C@@H](CS)C(=O)N[C@@H](CC(N)=O)C(=O)O | – | – | 128 µg/mL, 3 h, 37 °C | relative to: Triton X-100 | hemolysis | 1.13% |
| CC(C)C[C@H](N)C(=O)N[C@@H](Cc1c[nH]c2ccccc12)C(=O)NCC(=O)N[C@@H](CCCNC(=N)N)C(=O)N[C@@H](Cc1ccccc1)C(=O)N[C@@H](Cc1ccccc1)C(=O)N[C@@H](CCCNC(=N)N)C(=O)N[C@@H](CCCCN)C(=O)N[C@@H](Cc1ccc(-c2ccccc2)cc1)C(=O)N[C@@H](CCCCN)C(N)=O | haemolysis | – | 1 h, 37 °C | – | HC10 | 100 µM |
| CC(C)C[C@H](NC(=O)[C@@H]1CSCC(=O)N[C@@H](CCCCN)C(=O)N[C@@H](CC(C)C)C(=O)N[C@@H](CC(C)C)C(=O)NCCCC[C@@H]2NC(=O)[C@H](CC(C)C)NC(=O)[C@H](CC(C)C)NC(=O)[C@H](CCCCN)NC(=O)CSC[C@H](NC(=O)[C@H](CC(C)C)NC(=O)[C@H](CC(C)C)NC(=O)[C@H](CCCCN)NC2=O)C(=O)N[C@@H](CCCCN)C(=O)N[C@@H](CCCCN)C(=O)N[C@@H](CCCCN)C(=O)N1)C(N)=O | – | – | 4 h, pH 7.4, room temperature | – | minimal haemolytic concentration | 2000 µg/mL |
| CC[C@H](C)[C@H](NC(=O)[C@H](CCCCN)NC(=O)[C@@H](NC(=O)[C@H](CS)NC(=O)[C@H](CCCNC(=N)N)NC(=O)[C@H](CCCNC(=N)N)NC(=O)[C@H](CC(N)=O)NC(=O)[C@H](CCCNC(=N)N)NC(=O)[C@H](CS)NC(=O)[C@@H](NC(=O)[C@H](CO)NC(=O)[C@@H](NC(=O)[C@H](CS)NC(=O)[C@H](CCCCN)NC(=O)[C@@H](N)CCCNC(=N)N)[C@@H](C)CC)C(C)C)[C@@H](C)CC)C(=O)N[C@@H](CS)C(=O)N[C@@H](CCCNC(=N)N)C(=O)O | – | – | 128 µg/mL, 3 h, 37 °C | relative to: Triton X-100 | hemolysis | 0.28% |
| C[C@H](NC(=O)[C@H](CCCNC(=N)N)NC(=O)[C@H](CCCNC(=N)N)NC(=O)[C@@H]1CCCN1C(=O)CNC(=O)[C@H](CCCNC(=N)N)NC(=O)[C@H](CCCNC(=N)N)NC(=O)CN)C(=O)N[C@@H](CC(N)=O)C(=O)N[C@@H](CCC(N)=O)C(=O)N[C@@H](CC(N)=O)C(=O)NCC(=O)N[C@H](C(=O)N[C@@H](CCCNC(=N)N)C(=O)N[C@@H](CCCNC(=N)N)C(=O)N[C@@H](CCCNC(=N)N)C(=O)N[C@@H](CCCNC(=N)N)C(=O)N[C@@H](CCCNC(=N)N)C(=O)N[C@@H](CCCNC(=N)N)C(=O)N[C@H](C(N)=O)[C@@H](C)O)[C@@H](C)O | – | – | 100 µM, 24 h, pH 7.4, 37 °C, 0.25% v/v erythrocytes | – | maximum haemolysis | 7.2 ± 0.4% |
| CC(C)C[C@@H]1NC(=O)[C@H](CCCCN)NC(=O)CSC[C@@H](C(=O)N[C@@H](CCCCN)C(N)=O)NC(=O)[C@H](CC(C)C)NC(=O)[C@H](CC(C)C)NC(=O)[C@H](CC(C)C)NC(=O)[C@@H]2CSCC(=O)N[C@@H](CCCCN)C(=O)N[C@@H](CC(C)C)C(=O)N[C@@H](CCCCN)C(=O)N[C@@H](CCCCNC(=O)[C@H](CCCCN)NC1=O)C(=O)N[C@@H](CCCCN)C(=O)N[C@@H](CC(C)C)C(=O)N[C@@H](CC(C)C)C(=O)N2 | – | – | 4 h, pH 7.4, room temperature | – | minimal haemolytic concentration | 2000 µg/mL |

A few entries again:
| SMILES | assay | system | conditions | how to read | quantity | value |
| --- | --- | --- | --- | --- | --- | --- |
| CC[C@H](C)[C@H](NC(=O)[C@H](CCCN)NC(=O)[C@H](CC(N)=O)NC(=O)[C@H](CC(C)C)NC(=O)[C@H](Cc1ccccc1)NC(=O)[C@H](CCCN)NC(=O)[C@H](CCCNC(=N)N)NC(=O)[C@H](CC(C)C)NC(=O)[C@H](CC(C)C)NC(=O)[C@H](CCCN)NC(=O)[C@H](CCCNC(=N)N)NC(=O)[C@H](CC(C)C)NC(=O)CNC(C)=O)C(=O)N[C@@H](CCCN)C(=O)N[C@@H](CCCNC(=N)N)C(N)=O | – | 5 % erythrocyte suspension | 1 h, 37 °C | – | HC50 | > 1000 µM |
